Measured values gathered from unrelated publications.
Numbered parts are unrelated; each lists some results of a single study. Values joined by “and” are separate records of one study, mostly repeats; a detail may differ.
UniProt Q13422, sequence (whole entry, looked up): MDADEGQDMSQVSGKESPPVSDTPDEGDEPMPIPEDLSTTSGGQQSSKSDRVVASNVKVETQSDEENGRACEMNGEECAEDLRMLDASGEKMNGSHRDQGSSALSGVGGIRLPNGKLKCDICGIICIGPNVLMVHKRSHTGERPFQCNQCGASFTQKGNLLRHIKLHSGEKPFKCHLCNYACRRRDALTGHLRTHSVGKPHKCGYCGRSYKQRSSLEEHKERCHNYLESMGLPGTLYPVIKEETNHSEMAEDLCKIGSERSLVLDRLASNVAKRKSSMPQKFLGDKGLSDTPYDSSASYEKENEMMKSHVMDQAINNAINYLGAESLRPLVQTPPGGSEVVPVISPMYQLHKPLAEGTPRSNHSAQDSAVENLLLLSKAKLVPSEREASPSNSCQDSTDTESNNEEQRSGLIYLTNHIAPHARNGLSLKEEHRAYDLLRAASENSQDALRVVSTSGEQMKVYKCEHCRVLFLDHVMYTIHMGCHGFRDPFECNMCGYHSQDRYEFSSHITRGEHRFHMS

Study 1 — action: degrader; quantity: remaining protein
SMILES: Cn1cc(-c2cccc(CN3CCC4(CC3)COc3c4ccc4c3CN([C@H]3CCC(=O)NC3=O)C4=O)c2)cn1
CRBN/Zinc finger protein Helios: CRBN/Zinc finger protein Helios (Homo sapiens, UniProt Q96SW2+Q9UKS7)
UniProt Q96SW2, sequence (whole entry, looked up): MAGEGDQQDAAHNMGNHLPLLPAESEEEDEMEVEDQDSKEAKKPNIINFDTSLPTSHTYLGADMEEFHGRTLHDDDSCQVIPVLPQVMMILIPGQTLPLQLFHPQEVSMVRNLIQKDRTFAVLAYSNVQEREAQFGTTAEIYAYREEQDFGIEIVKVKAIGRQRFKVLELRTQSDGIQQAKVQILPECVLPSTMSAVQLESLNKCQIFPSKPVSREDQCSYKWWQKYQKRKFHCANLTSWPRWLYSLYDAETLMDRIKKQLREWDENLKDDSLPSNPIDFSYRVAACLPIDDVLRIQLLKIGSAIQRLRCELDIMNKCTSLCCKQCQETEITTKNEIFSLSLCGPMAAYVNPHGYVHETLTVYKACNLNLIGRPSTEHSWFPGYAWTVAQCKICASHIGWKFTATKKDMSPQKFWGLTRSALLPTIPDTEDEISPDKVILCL
UniProt Q9UKS7, sequence (whole entry, looked up): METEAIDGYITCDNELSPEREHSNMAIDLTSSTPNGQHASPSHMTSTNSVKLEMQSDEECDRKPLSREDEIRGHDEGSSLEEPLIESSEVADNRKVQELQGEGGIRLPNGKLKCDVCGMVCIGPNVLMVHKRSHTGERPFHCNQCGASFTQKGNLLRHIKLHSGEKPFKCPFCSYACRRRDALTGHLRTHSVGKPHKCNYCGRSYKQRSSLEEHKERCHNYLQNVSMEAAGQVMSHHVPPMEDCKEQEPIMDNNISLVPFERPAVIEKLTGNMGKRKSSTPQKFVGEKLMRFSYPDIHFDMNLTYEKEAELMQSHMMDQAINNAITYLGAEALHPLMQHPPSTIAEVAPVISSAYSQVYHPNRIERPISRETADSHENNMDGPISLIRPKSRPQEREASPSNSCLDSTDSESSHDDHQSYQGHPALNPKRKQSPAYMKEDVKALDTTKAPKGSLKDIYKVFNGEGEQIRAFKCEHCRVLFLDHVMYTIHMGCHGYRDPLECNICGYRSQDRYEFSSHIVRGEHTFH
Zinc finger protein Aiolos: Zinc finger protein Aiolos (Homo sapiens, UniProt Q9UKT9)
UniProt Q9UKT9, sequence (whole entry, looked up): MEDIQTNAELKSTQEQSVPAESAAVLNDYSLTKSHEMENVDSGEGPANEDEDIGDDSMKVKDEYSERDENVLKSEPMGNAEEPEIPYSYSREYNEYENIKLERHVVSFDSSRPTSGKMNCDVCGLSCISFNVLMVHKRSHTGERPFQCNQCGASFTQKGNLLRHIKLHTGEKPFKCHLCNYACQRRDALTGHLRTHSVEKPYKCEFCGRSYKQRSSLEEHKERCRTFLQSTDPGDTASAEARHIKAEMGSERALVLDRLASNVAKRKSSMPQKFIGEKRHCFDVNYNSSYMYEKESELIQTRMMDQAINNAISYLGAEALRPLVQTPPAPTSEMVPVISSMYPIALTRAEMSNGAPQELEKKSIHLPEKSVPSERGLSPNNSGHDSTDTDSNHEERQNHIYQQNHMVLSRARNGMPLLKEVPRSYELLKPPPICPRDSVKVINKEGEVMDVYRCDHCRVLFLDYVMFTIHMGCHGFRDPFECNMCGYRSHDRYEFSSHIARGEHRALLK
IKZF4: Zinc finger protein Eos (IKZF4, Homo sapiens, UniProt Q9H2S9)
UniProt Q9H2S9, sequence (whole entry, looked up): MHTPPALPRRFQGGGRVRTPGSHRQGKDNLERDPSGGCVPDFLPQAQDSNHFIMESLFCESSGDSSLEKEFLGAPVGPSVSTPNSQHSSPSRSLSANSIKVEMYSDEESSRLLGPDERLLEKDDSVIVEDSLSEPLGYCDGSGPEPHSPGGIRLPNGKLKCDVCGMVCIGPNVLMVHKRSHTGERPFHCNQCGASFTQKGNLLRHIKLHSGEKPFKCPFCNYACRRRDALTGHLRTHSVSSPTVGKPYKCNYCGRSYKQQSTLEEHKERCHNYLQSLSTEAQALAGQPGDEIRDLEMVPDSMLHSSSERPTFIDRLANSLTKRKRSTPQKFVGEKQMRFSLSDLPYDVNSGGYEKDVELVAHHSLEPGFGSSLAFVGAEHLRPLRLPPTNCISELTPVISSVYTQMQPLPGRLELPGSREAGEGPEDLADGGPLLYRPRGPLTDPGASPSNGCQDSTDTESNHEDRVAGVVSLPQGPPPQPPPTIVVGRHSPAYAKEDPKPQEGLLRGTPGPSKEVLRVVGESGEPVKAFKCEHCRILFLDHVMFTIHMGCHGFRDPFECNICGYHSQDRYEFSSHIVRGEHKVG
CRBN/Zinc finger protein Helios; flow cytometry; primary human regulatory T cells; 4.115 nM, 3 h: 80.1% and 89.4%
Zinc finger protein Aiolos; HiBiT; HEK293; 123.5 nM: 96.1% and 87.6%
DNA-binding protein Ikaros (Homo sapiens, UniProt Q13422); HiBiT; HEK293; 123.5 nM: 96.9% and 93.5%
Zinc finger protein Aiolos; HiBiT; HEK293; 41.15 nM: 91.9% and 92.4%
IKZF4; HiBiT; HEK293; 0.05081 nM, 3 h: 107% and 95.3%
Sal-like protein 4 (SALL4, Homo sapiens, UniProt Q9UJQ4); HiBiT; HEK293; 0.1694 nM: 80.9% and 107%
IKZF4; HiBiT; HEK293; 1.372 nM, 6 h: 103% and 104%
CRBN/Zinc finger protein Helios; flow cytometry; primary human regulatory T cells; 111.1 nM, 3 h: 33.9% and 27.4%

Study 2 — quantity: mRNA level ratio
Structure (SMILES): COCC1CC2C(CCC3C(O)CCC32)c2ccc(O)cc21 (stereo not shown)
PANC-1; DNA microarray, item: MCM10; 25 µM; baseline: untreated cells: 1.45
A549; DNA microarray, item: KIF20A; 25 µM; baseline: untreated cells: 1.02 and 0.992 and 0.979 and 1.01
PANC-1; DNA microarray, item: MCM7; 100 µM; baseline: untreated cells: 0.811
A549; DNA microarray, item: MCM7; 25 µM; baseline: untreated cells: 1.14
PANC-1; DNA microarray, item: GAPDH; 100 µM; baseline: untreated cells: 0.619 and 0.617 and 0.641 and 0.622 and 0.627
PANC-1; microarray, item: SPC25; 100 µM; baseline: untreated: 1.4
SK-OV-3; microarray, item: AURKA; 100 µM; baseline: untreated: 1.04
A549; microarray, item: GZMK; 25 µM; baseline: untreated: 1

Study 3 — effect on: thermal unfolding; method: differential scanning fluorimetry; tested at: 5.5 µM; direction: higher = more unfolded; quantity: SYPRO Orange fluorescence
Structure (SMILES): C[C@@H]1CN(c2ccc(-c3cc(C(=O)NCCOCCOCCOCCOCCNC(=O)Cn4cc(-c5[nH]cc(C(=O)N[C@@H](CC(N)=O)c6ccc(F)c(Cl)c6)c5-c5ccc(Cl)cc5F)cn4)ccc3F)cc2NC(=O)c2c[nH]c(=O)cc2C(F)(F)F)C[C@H](C)N1C
WDR5: WD repeat-containing protein 5 (WDR5, Homo sapiens, UniProt P61964)
DCAF1: DDB1- and CUL4-associated factor 1 (DCAF1, Homo sapiens, UniProt Q9Y4B6)
UniProt Q9Y4B6, sequence (whole entry, looked up): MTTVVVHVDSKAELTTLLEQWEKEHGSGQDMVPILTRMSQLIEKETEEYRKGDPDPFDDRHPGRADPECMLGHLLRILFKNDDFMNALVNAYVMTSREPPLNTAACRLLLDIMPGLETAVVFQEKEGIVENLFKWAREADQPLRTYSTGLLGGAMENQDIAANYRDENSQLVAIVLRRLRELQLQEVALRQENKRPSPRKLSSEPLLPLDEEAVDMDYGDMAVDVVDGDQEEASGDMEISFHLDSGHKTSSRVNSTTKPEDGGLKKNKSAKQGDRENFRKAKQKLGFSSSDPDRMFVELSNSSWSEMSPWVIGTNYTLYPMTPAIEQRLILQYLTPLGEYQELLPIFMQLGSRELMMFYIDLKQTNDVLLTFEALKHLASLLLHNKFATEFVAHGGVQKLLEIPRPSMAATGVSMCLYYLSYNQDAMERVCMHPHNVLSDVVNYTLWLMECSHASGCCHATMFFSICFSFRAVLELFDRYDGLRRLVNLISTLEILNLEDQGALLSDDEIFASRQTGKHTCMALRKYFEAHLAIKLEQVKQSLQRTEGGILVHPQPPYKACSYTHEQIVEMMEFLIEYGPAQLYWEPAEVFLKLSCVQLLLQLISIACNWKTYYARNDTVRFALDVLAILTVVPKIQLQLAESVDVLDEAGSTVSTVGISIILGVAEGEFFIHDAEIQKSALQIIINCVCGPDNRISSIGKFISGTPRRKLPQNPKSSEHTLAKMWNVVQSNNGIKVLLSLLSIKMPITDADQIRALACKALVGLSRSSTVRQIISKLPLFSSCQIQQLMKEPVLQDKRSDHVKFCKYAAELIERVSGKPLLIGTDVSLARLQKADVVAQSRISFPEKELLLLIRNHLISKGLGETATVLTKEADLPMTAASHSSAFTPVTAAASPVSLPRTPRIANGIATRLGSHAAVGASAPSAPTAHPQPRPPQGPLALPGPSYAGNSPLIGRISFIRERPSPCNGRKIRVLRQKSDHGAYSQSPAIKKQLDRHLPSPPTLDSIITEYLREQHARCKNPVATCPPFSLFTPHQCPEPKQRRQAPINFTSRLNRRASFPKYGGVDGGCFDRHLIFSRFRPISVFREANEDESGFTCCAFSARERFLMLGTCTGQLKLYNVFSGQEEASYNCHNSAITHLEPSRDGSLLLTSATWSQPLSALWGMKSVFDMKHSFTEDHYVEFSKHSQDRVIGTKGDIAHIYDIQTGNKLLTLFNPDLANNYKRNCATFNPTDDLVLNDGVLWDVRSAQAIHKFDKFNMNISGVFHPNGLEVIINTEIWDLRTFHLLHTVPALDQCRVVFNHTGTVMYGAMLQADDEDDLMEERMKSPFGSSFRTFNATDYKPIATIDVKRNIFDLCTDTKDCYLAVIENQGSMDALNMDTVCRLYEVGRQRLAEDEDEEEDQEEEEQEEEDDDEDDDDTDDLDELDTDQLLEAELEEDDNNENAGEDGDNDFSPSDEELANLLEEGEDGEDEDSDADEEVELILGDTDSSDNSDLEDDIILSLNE
WDR5; 92.01 °C: 41400 a.u.
DCAF1; 47.8 °C: 13500 a.u.
WDR5; 53.21 °C: 14300 a.u.
DCAF1; 53.81 °C: 17500 a.u.
WDR5; 83.81 °C: 36200 a.u.
WDR5; 72.21 °C: 7740 a.u.
WDR5; 30.2 °C: 15000 a.u.
DCAF1; 71.41 °C: 53000 a.u.

Mixed results
C=CCN1C(=O)C(O)(C(=O)O)Oc2cc(F)ccc21 (stereo not shown)  inhibition (Glycine max; fresh weight; soil surface spray, 150 g ai/ha, 21 days, pre-emergence crop safety): 7.7% and 8.2% and 8.7%

For quick reference, copied from above (study 3):
WDR5; 30.2 °C: 15000 a.u.
WDR5; 72.21 °C: 7740 a.u.
